Published values pooled from the literature.
Every numbered part comes from another study and shows a few of its results, in no order. ≈ marks a conversion by molar mass, not a printed value.
Chain of UniProt Q6XUX3 (whole entry, looked up): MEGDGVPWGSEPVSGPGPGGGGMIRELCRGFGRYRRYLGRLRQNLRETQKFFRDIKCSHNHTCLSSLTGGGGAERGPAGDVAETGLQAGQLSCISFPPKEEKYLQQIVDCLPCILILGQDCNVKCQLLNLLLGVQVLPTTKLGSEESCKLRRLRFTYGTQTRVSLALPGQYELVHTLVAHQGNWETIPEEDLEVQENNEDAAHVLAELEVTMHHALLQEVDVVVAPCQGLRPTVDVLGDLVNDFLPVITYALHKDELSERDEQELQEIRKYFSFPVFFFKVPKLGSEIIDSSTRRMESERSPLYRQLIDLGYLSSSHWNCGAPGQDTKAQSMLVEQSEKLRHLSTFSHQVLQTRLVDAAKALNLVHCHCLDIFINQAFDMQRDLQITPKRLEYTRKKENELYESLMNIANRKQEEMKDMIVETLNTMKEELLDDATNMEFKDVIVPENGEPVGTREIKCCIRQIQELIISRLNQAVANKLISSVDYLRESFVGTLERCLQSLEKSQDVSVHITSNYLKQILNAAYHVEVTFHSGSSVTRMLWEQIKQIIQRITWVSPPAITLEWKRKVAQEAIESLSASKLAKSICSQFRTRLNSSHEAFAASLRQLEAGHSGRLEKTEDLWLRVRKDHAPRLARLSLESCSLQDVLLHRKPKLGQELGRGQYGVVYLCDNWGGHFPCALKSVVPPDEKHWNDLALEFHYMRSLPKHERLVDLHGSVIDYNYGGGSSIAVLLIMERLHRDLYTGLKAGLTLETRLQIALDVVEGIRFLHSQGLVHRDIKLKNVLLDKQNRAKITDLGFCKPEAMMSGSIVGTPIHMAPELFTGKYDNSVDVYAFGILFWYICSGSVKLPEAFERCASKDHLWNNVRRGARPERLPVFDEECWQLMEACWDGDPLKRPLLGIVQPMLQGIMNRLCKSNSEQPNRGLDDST
Chain of UniProt Q13188 (whole entry, looked up): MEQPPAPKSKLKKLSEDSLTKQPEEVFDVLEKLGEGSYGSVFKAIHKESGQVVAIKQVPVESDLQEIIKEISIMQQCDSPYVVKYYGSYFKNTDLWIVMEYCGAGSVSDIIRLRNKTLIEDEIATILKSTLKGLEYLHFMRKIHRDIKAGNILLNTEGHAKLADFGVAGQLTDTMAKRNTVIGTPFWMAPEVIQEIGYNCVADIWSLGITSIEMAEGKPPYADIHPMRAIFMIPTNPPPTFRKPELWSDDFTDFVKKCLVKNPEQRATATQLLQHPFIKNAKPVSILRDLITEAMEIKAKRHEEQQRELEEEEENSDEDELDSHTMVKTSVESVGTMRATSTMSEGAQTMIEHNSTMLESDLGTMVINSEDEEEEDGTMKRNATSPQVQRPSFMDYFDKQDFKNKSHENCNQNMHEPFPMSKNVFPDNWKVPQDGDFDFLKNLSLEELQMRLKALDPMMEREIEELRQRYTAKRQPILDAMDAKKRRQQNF
Chain of UniProt Q96GD4 (whole entry, looked up): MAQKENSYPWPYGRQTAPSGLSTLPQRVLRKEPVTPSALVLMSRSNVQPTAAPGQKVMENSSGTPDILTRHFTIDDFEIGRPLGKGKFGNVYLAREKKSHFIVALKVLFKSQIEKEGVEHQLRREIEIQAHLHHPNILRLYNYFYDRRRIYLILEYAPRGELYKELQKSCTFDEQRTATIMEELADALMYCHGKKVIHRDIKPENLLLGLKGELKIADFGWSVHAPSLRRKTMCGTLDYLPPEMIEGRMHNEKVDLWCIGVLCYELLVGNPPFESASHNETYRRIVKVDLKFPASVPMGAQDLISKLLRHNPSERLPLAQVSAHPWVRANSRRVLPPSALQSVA
Chain of UniProt Q9BWU1 (whole entry, looked up): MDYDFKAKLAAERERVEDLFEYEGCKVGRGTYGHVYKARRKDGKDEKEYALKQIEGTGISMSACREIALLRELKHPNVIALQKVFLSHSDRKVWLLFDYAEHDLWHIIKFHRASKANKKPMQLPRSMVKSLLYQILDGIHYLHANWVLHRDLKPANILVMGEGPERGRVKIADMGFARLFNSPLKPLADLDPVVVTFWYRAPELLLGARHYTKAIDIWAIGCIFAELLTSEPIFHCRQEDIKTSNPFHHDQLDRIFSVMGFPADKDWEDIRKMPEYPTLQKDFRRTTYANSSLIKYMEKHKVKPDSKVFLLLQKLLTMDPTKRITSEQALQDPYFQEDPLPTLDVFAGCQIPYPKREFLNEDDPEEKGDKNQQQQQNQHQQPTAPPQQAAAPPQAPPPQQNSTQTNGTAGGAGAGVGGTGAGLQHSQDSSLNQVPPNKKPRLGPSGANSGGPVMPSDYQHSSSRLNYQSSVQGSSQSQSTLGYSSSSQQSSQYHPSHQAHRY
Chain of UniProt P23458 (whole entry, looked up): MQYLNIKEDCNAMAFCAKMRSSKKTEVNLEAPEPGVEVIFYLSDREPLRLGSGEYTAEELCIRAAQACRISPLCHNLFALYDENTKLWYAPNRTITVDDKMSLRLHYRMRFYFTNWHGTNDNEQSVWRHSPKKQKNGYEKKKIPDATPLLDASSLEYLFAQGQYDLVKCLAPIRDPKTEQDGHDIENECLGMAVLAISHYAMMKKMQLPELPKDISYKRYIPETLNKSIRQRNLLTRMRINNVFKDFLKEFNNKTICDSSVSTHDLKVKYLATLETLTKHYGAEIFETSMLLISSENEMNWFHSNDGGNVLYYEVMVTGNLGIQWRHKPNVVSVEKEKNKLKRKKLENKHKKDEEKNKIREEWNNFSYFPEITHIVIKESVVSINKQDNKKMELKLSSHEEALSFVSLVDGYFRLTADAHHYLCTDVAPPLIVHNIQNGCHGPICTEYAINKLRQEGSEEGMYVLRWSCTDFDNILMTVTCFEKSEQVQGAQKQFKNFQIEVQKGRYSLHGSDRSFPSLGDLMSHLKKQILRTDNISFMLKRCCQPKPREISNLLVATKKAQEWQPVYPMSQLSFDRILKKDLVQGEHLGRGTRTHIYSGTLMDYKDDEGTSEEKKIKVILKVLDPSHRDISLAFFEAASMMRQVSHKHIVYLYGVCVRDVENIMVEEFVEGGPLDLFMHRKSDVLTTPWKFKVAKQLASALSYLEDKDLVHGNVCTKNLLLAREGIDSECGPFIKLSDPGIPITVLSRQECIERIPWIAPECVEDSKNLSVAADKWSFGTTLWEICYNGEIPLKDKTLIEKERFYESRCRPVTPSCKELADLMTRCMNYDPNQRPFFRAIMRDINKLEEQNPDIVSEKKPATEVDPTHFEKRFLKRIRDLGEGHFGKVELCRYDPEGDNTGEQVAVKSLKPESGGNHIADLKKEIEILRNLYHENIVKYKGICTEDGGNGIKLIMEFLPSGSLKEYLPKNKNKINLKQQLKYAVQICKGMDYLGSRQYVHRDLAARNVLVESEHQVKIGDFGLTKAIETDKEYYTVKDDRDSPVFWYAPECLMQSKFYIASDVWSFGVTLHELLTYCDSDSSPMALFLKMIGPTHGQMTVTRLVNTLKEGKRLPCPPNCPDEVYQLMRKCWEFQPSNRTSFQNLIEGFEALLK

Set 1
SMILES: C[C@@H]1CN(c2ccc(-c3cc(C(=O)NCCOCCOCCOCCOCCNC(=O)/C=C/c4[nH]cc(C(=O)N[C@@H](CC(N)=O)c5ccc(F)c(Cl)c5)c4-c4ccc(Cl)cc4F)ccc3F)cc2NC(=O)c2c[nH]c(=O)cc2C(F)(F)F)C[C@H](C)N1C
Observed: thermal unfolding
Method: differential scanning fluorimetry
Tested at: 5.5 µM
Reading: higher = more unfolded
Quantity: SYPRO Orange fluorescence
DCAF1: DDB1- and CUL4-associated factor 1 (DCAF1, Homo sapiens, UniProt Q9Y4B6)
Chain of UniProt Q9Y4B6 (whole entry, looked up): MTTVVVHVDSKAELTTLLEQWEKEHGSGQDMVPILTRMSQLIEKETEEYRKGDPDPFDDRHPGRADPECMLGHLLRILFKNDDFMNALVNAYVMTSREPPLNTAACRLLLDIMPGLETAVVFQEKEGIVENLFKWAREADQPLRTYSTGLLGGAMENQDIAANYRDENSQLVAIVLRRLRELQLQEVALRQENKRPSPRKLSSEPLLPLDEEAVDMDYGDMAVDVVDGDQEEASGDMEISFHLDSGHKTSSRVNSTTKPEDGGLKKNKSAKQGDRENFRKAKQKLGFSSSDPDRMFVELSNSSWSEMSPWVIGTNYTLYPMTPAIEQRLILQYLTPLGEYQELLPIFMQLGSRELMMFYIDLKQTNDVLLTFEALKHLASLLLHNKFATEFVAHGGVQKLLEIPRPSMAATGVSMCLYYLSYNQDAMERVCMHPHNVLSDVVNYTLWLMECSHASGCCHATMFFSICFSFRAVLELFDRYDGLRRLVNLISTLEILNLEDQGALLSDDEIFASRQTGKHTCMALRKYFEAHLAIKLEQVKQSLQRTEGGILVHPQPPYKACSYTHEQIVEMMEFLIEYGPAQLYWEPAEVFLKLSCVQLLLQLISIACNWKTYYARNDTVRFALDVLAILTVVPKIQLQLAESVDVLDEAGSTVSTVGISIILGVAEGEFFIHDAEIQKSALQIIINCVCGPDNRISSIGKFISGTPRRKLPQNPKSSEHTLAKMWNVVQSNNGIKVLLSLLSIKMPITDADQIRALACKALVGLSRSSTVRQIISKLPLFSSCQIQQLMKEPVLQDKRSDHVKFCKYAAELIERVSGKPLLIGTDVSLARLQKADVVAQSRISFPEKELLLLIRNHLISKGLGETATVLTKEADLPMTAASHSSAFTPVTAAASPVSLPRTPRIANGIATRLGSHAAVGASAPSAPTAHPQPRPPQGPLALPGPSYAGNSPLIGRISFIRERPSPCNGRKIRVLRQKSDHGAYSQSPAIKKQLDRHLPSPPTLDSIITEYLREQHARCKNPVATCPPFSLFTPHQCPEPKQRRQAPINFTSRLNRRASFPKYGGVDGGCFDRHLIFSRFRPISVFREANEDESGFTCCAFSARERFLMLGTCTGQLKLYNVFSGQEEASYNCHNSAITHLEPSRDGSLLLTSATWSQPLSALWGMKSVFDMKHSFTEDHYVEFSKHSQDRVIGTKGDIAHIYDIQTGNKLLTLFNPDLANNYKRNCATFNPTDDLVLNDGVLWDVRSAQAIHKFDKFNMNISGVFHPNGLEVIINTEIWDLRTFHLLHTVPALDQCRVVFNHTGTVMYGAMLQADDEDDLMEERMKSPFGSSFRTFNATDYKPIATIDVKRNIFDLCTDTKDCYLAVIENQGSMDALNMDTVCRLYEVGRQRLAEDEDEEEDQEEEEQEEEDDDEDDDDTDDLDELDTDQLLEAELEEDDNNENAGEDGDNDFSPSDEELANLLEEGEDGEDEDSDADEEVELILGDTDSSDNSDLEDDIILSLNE
WDR5: WD repeat-containing protein 5 (WDR5, Homo sapiens, UniProt P61964)
DCAF1; 74.61 °C: 50500 a.u.
DCAF1; 60.41 °C: 42700 a.u.
DCAF1; 48.8 °C: 14600 a.u.
WDR5; 56.01 °C: 16800 a.u.
DCAF1; 54.81 °C: 21100 a.u.
DCAF1; 56.81 °C: 26500 a.u.
WDR5; 67.21 °C: 14000 a.u.
WDR5; 93.21 °C: 47300 a.u.

Set 2
SMILES: CC[C@@]1(c2ccccc2)C2=C(CC(C)(C)CC2=O)Nc2n[nH]cc21
Tested at: 1 µM
Quantity: remaining binding
High affinity nerve growth factor receptor (NTRK1, Homo sapiens, UniProt P04629); binding, competition with immobilised ligand: 95%
Receptor-type tyrosine-protein kinase FLT3 (FLT3, Homo sapiens, UniProt P36888, R834Q); kinase binding, KINOMEscan; relative to: DMSO control: 100%
Dual serine/threonine and tyrosine protein kinase (DSTYK, Homo sapiens, UniProt Q6XUX3); binding, competition with immobilised ligand: 92%
Tyrosine-protein kinase JAK1, JH2 (JAK1, Homo sapiens, UniProt P23458); binding, competition with immobilised ligand: 99%
Serine/threonine-protein kinase RIO3 (RIOK3, Homo sapiens, UniProt O14730); binding, competition with immobilised ligand: 100%
SRSF protein kinase 2 (SRPK2, Homo sapiens, UniProt P78362); binding, competition with immobilised ligand: 95%
Serine/threonine-protein kinase Sgk3 (SGK3, Homo sapiens, UniProt Q96BR1); binding, competition with immobilised ligand: 100%
Aurora kinase B (AURKB, Homo sapiens, UniProt Q96GD4); binding, competition with immobilised ligand: 89%
Dual specificity mitogen-activated protein kinase kinase 2 (MAP2K2, Homo sapiens, UniProt P36507); kinase binding, KINOMEscan; relative to: DMSO control: 83%
Cyclin-dependent kinase 5 (CDK5, Homo sapiens, UniProt Q00535); binding, competition with immobilised ligand: 100%
Tyrosine-protein kinase Lck (LCK, Homo sapiens, UniProt P06239); binding, competition with immobilised ligand: 100%
Tyrosine-protein kinase ABL2 (ABL2, Homo sapiens, UniProt P42684); kinase binding, KINOMEscan; relative to: DMSO control: 88%
Serine/threonine-protein kinase 10 (STK10, Homo sapiens, UniProt O94804); kinase binding, KINOMEscan; relative to: DMSO control: 100%
Tyrosine-protein kinase ABL1, non-phosphorylated (ABL1, Homo sapiens, UniProt P00519, H396P); kinase binding, KINOMEscan; relative to: DMSO control: 75%
Cyclin-dependent kinase 11A (CDK11A, Homo sapiens, UniProt Q9UQ88); kinase binding, KINOMEscan; relative to: DMSO control: 100%
Serine/threonine-protein kinase 3 (STK3, Homo sapiens, UniProt Q13188); binding, competition with immobilised ligand: 100%
Serine/threonine-protein kinase 4 (STK4, Homo sapiens, UniProt Q13043); binding, competition with immobilised ligand: 100%
Beta-adrenergic receptor kinase 1 (GRK2, Homo sapiens, UniProt P25098); binding, competition with immobilised ligand: 100%
Tyrosine-protein kinase HCK (HCK, Homo sapiens, UniProt P08631); kinase binding, KINOMEscan; relative to: DMSO control: 100%
Receptor-type tyrosine-protein kinase FLT3 (FLT3, Homo sapiens, UniProt P36888, D835V); binding, competition with immobilised ligand: 100%
Epidermal growth factor receptor (EGFR, Homo sapiens, UniProt P00533, L858R); kinase binding, KINOMEscan; relative to: DMSO control: 100%
Casein kinase I isoform delta (CSNK1D, Homo sapiens, UniProt P48730); kinase binding, KINOMEscan; relative to: DMSO control: 100%
Mast/stem cell growth factor receptor Kit (KIT, Homo sapiens, UniProt P10721, D816V); kinase binding, KINOMEscan; relative to: DMSO control: 100%

Set 3
Compound: COc1cc(-c2nc3ccc(C(=O)NCCCN(C)C)cc3n2C2CCC2)cc(OC)c1OC
Tested at: 1 µM
Quantity: remaining binding
Calcium/calmodulin-dependent protein kinase type 1 (CAMK1, Homo sapiens, UniProt Q14012); binding, competition with immobilised ligand: 100%
SNF-related serine/threonine-protein kinase (SNRK, Homo sapiens, UniProt Q9NRH2); binding, competition with immobilised ligand: 70%
Cyclin-dependent kinase 19 (CDK19, Homo sapiens, UniProt Q9BWU1); KINOMEscan; relative to: control: 76%
Tyrosine-protein kinase ABL1, phosphorylated (ABL1, Homo sapiens, UniProt P00519, F317I); binding, competition with immobilised ligand: 90%
Phosphatidylinositol 4,5-bisphosphate 3-kinase catalytic subunit alpha isoform (PIK3CA, Homo sapiens, UniProt P42336, E542K); binding, competition with immobilised ligand: 99%
Dual serine/threonine and tyrosine protein kinase (DSTYK, Homo sapiens, UniProt Q6XUX3); binding, competition with immobilised ligand: 92%
Receptor-interacting serine/threonine-protein kinase 4 (RIPK4, Homo sapiens, UniProt P57078); binding, competition with immobilised ligand: 36%
Calcium/calmodulin-dependent protein kinase type 1D (CAMK1D, Homo sapiens, UniProt Q8IU85); binding, competition with immobilised ligand: 96%
Serine/threonine-protein kinase RIO2 (RIOK2, Homo sapiens, UniProt Q9BVS4); binding, competition with immobilised ligand: 88%
Serine/threonine-protein kinase N2 (PKN2, Homo sapiens, UniProt Q16513); binding, competition with immobilised ligand: 100%
Leucine-rich repeat serine/threonine-protein kinase 2 (LRRK2, Homo sapiens, UniProt Q5S007, G2019S); binding, competition with immobilised ligand: 97%
Serine/threonine-protein kinase PRP4 homolog (PRPF4B, Homo sapiens, UniProt Q13523); binding, competition with immobilised ligand: 99%
Mitogen-activated protein kinase kinase kinase kinase 1 (MAP4K1, Homo sapiens, UniProt Q92918); binding, competition with immobilised ligand: 83%
Serine/threonine-protein kinase ULK2 (ULK2, Homo sapiens, UniProt Q8IYT8); binding, competition with immobilised ligand: 100%
Atypical kinase COQ8B, mitochondrial (COQ8B, Homo sapiens, UniProt Q96D53); binding, competition with immobilised ligand: 98%
Tyrosine-protein kinase Srms (SRMS, Homo sapiens, UniProt Q9H3Y6); binding, competition with immobilised ligand: 87%
cAMP-dependent protein kinase catalytic subunit PRKX (PRKX, Homo sapiens, UniProt P51817); binding, competition with immobilised ligand: 71%
Myosin-IIIa (MYO3A, Homo sapiens, UniProt Q8NEV4); binding, competition with immobilised ligand: 100%

Set 4
Sample: FeSSIF
Time: 24 h
pH: 5.0
Quantity: kinetic solubility
Cc1ccc(O)c(C)c1-c1cnc2[nH]c(-c3cnc(N4CCC(CN5CCN(c6cc7c(cc6F)n(C6CCC(=O)NC6=O)c(=O)n7C)CC5)CC4)nc3)cc2c1C#N (centres unmarked): 77 µM (≈ 61.4 µg/mL)
Cc1ccc(O)c(C)c1-c1cnc2[nH]c(-c3cnc(N4CCC(CN5CCN(c6ccc7c(c6)CN(C6CCC(=O)NC6=O)C7=O)CC5)CC4)nc3)cc2c1C#N (centres unmarked): 68 µM (≈ 52 µg/mL)
Cc1ccc(O)c(C)c1-c1cnc2[nH]c(-c3cnc(N4CCC(CCN5CCN(c6ccc(NC7CCC(=O)NC7=O)cc6F)CC5)CC4)nc3)cc2c1C#N (centres unmarked): 131 µM (≈ 99.2 µg/mL)
Cc1ccc(O)c(C)c1-c1cnc2[nH]c(-c3cnc(N4CCC(CN5CCN(c6ccc(NC7CCC(=O)NC7=O)cc6F)CC5)CC4)nc3)cc2c1C#N (centres unmarked): 109 µM (≈ 81 µg/mL)
Cc1ccc(O)c(C)c1-c1cnc2[nH]c(-c3cnc(N4CCC(CN5CCN(c6ccc7c(c6F)CN(C6CCC(=O)NC6=O)C7=O)CC5)CC4)nc3)cc2c1C#N (centres unmarked): 157 µM (≈ 123 µg/mL)
Cc1ccc(O)c(C)c1-c1cnc2[nH]c(-c3cnc(N4CC5(CC(CN6CCN(c7ccc(NC8CCC(=O)NC8=O)cc7F)CC6)C5)C4)nc3)cc2c1C#N (centres unmarked): 113 µM (≈ 85.3 µg/mL)
Cc1ccc(O)c(C)c1-c1cnc2[nH]c(-c3cnc(N4CCC(CN5CCN(c6ccc7c(c6)C(=O)N(C6CCC(=O)NC6=O)C7=O)CC5)CC4)nc3)cc2c1C#N (centres unmarked): < 1.56 µM

For quick reference, copied from above (set 4):
Cc1ccc(O)c(C)c1-c1cnc2[nH]c(-c3cnc(N4CCC(CN5CCN(c6ccc7c(c6)C(=O)N(C6CCC(=O)NC6=O)C7=O)CC5)CC4)nc3)cc2c1C#N (centres unmarked): < 1.56 µM
Cc1ccc(O)c(C)c1-c1cnc2[nH]c(-c3cnc(N4CCC(CN5CCN(c6cc7c(cc6F)n(C6CCC(=O)NC6=O)c(=O)n7C)CC5)CC4)nc3)cc2c1C#N (centres unmarked): 77 µM (≈ 61.4 µg/mL)
Cc1ccc(O)c(C)c1-c1cnc2[nH]c(-c3cnc(N4CCC(CN5CCN(c6ccc7c(c6)CN(C6CCC(=O)NC6=O)C7=O)CC5)CC4)nc3)cc2c1C#N (centres unmarked): 68 µM (≈ 52 µg/mL)
Cc1ccc(O)c(C)c1-c1cnc2[nH]c(-c3cnc(N4CC5(CC(CN6CCN(c7ccc(NC8CCC(=O)NC8=O)cc7F)CC6)C5)C4)nc3)cc2c1C#N (centres unmarked): 113 µM (≈ 85.3 µg/mL)
Cc1ccc(O)c(C)c1-c1cnc2[nH]c(-c3cnc(N4CCC(CN5CCN(c6ccc7c(c6F)CN(C6CCC(=O)NC6=O)C7=O)CC5)CC4)nc3)cc2c1C#N (centres unmarked): 157 µM (≈ 123 µg/mL)
Cc1ccc(O)c(C)c1-c1cnc2[nH]c(-c3cnc(N4CCC(CCN5CCN(c6ccc(NC7CCC(=O)NC7=O)cc6F)CC5)CC4)nc3)cc2c1C#N (centres unmarked): 131 µM (≈ 99.2 µg/mL)
Cc1ccc(O)c(C)c1-c1cnc2[nH]c(-c3cnc(N4CCC(CN5CCN(c6ccc(NC7CCC(=O)NC7=O)cc6F)CC5)CC4)nc3)cc2c1C#N (centres unmarked): 109 µM (≈ 81 µg/mL)
